Experimental data of several laboratories.
Numbers after ± are the reported error.
DGKZ: Diacylglycerol kinase zeta (DGKZ, Homo sapiens, UniProt Q13574)
Gria2/Glutamate receptor 3: Gria2/Glutamate receptor 3 (Rattus norvegicus, UniProt P19491+P19492)
UniProt P19491, sequence (whole entry, looked up): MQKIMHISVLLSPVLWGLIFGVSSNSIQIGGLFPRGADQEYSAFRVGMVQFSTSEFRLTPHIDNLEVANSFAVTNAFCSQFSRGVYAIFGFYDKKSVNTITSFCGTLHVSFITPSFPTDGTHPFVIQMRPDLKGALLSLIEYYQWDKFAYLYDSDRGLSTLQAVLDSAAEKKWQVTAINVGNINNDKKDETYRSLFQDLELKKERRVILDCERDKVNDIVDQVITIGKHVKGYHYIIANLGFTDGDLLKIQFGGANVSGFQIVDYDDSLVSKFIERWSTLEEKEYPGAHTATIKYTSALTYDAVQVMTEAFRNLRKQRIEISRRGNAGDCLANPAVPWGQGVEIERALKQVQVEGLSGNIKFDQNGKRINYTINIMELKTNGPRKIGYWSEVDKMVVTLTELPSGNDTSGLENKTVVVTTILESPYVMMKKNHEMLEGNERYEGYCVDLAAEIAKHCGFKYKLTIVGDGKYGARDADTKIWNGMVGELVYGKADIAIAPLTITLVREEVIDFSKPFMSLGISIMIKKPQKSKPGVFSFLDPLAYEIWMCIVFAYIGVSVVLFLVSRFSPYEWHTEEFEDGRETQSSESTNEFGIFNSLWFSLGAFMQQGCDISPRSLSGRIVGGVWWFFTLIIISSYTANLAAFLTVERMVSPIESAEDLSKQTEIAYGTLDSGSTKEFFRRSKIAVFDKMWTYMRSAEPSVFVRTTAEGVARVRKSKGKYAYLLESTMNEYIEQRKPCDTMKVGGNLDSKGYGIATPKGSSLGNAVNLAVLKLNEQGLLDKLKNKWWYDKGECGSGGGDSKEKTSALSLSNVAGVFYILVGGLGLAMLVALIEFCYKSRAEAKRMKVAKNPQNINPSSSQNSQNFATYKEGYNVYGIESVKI
UniProt P19492, sequence (whole entry, looked up): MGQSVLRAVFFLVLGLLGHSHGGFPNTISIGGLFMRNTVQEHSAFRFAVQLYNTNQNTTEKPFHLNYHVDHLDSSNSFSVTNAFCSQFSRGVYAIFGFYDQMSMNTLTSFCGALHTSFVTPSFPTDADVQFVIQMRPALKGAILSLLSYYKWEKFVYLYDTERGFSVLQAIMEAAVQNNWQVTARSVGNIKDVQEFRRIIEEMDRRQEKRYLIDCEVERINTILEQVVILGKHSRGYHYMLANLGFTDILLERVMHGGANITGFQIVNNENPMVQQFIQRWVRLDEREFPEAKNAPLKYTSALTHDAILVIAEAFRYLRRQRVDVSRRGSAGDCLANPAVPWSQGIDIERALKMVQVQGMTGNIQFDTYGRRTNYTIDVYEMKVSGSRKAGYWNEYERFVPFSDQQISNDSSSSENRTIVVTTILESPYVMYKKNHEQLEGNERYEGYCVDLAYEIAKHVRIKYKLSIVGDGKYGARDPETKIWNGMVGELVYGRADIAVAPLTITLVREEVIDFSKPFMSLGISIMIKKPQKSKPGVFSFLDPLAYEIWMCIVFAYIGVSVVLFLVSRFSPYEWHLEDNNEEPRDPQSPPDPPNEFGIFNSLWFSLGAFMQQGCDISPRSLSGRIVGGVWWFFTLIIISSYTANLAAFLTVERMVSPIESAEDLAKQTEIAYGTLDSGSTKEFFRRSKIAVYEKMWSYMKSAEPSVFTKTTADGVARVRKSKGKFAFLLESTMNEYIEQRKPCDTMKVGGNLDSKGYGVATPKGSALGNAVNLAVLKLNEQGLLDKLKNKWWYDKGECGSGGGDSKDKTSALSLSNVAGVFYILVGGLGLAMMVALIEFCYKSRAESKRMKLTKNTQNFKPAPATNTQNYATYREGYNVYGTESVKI
PIK3CA: Phosphatidylinositol 4,5-bisphosphate 3-kinase catalytic subunit alpha isoform (PIK3CA, Homo sapiens, UniProt P42336)
UniProt P42336, sequence (whole entry, looked up): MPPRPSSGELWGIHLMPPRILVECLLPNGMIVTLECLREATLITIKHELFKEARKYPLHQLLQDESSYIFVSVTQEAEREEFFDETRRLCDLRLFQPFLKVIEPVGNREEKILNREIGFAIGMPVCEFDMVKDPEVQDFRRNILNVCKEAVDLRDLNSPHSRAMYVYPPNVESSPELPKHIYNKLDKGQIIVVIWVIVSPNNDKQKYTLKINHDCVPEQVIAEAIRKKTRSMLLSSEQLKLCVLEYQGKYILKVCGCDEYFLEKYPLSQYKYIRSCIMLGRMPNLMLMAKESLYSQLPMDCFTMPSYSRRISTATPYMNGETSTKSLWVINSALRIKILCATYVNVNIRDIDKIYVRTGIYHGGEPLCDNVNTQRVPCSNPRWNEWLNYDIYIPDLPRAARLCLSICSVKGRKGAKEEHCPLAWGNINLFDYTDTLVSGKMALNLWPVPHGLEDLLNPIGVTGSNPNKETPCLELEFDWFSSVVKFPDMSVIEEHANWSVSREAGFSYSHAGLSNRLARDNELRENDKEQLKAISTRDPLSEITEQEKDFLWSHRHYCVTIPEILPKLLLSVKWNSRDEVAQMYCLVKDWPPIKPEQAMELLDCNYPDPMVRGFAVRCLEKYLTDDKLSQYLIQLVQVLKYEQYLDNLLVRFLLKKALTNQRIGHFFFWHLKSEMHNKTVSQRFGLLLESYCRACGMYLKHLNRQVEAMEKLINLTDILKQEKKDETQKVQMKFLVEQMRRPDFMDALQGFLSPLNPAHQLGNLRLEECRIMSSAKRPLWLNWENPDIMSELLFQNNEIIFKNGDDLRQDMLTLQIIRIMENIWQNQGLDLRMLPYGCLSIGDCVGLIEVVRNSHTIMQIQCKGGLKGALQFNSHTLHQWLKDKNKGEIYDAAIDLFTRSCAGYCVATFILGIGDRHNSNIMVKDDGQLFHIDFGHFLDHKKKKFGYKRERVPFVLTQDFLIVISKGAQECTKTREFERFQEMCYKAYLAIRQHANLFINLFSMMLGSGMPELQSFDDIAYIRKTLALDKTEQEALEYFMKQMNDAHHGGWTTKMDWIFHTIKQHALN
IDO1: Indoleamine 2,3-dioxygenase 1 (IDO1, Homo sapiens, UniProt P14902)
UniProt P14902, sequence (whole entry, looked up): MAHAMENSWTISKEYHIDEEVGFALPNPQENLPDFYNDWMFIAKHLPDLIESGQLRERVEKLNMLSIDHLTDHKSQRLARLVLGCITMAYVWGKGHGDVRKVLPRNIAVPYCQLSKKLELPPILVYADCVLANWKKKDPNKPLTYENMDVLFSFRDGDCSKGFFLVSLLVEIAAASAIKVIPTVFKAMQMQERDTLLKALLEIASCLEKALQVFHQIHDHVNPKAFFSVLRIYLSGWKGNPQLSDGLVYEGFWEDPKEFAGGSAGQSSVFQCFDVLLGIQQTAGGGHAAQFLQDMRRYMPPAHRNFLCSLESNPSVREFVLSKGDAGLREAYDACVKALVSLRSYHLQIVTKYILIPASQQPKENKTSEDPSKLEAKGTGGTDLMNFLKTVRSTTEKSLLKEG
PDE9A: High affinity cGMP-specific 3',5'-cyclic phosphodiesterase 9A (PDE9A, Homo sapiens, UniProt O76083)
UniProt O76083, sequence (whole entry, looked up): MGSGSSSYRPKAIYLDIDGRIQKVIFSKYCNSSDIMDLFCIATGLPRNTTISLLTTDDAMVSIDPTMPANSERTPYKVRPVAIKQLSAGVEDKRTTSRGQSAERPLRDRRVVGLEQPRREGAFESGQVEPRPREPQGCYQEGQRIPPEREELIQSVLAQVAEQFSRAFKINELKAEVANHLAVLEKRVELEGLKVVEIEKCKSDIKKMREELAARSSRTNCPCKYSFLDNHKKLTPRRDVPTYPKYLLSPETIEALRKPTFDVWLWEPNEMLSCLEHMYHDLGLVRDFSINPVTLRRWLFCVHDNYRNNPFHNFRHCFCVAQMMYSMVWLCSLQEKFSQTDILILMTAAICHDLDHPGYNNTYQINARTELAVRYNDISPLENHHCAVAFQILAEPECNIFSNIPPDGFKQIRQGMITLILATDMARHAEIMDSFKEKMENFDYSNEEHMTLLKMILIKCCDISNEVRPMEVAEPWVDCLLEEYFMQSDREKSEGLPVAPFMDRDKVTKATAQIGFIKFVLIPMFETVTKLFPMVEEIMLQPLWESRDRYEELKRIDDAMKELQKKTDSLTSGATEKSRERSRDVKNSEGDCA
60 kDa heat shock protein, mitochondrial with HSP10: 60 kDa heat shock protein, mitochondrial, with HSP10 (Homo sapiens, UniProt P10809)
UniProt P10809, sequence (whole entry, looked up): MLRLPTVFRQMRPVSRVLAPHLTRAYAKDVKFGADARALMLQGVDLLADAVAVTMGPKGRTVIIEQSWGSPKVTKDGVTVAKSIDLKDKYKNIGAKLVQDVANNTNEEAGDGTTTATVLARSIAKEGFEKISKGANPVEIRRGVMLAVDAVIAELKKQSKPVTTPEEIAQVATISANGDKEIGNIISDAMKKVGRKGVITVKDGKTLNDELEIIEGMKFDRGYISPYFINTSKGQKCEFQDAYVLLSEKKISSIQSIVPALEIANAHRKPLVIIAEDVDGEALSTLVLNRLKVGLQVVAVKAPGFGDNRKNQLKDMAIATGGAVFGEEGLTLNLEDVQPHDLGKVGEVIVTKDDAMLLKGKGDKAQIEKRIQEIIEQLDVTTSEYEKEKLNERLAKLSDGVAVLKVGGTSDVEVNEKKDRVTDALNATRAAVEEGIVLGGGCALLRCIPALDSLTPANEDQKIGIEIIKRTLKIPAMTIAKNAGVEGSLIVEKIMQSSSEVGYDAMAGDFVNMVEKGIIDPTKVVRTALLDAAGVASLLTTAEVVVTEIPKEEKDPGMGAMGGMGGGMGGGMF
UniProt P23141, sequence (whole entry, looked up): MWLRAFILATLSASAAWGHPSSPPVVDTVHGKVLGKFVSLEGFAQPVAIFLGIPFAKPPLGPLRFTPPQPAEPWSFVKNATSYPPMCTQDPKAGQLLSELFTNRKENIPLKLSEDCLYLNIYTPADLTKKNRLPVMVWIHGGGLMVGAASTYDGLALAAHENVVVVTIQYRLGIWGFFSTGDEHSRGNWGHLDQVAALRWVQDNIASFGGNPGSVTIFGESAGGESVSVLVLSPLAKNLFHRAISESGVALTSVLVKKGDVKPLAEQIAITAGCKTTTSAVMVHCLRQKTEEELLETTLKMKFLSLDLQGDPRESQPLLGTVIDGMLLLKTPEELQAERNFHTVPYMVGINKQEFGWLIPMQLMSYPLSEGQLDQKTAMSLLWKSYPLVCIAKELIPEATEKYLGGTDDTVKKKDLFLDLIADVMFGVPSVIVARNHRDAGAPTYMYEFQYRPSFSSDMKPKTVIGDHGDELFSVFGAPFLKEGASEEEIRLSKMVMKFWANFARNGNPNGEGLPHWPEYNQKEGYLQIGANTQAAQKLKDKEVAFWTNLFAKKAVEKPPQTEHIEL

CC(=O)OC1CCC2(C)C(CCC3(C)C2CC=C2C4C(C)C(C)CCC4(C(=O)O)CCC23C)C1(C)C (centres unmarked)
IC50 (UGT1A3 (Homo sapiens, UniProt P35503); enzyme activity, inhibitor): 11.3 µM

C[C@H]1CN(c2cc(=O)n(C)c3ccc(C#N)nc23)[C@@H](C)CN1Cc1ccc(S(=O)(=O)n2cnc(C3CC3)n2)cc1
IC50 (DGKZ; inhibitor, ADP-Glo; together with: DAG micelles): 4.2 µM

COc1c(Cl)cccc1Nc1c(-c2ccncc2C#C[C@@]2(C)CCCN2C(=O)/C=C/CN(C)C)[nH]c2c1C(=O)NCC2
IC50 (MAPK10 (Homo sapiens, UniProt P53779)): 1.5 µM

COC(=O)Cc1cc2c(cc1C(=O)c1ccccc1Br)OCO2
IC50 (Gria2/Glutamate receptor 3; ion current, antagonist, patch clamp): 5.5 µM

O=C1Nc2ccccc2/C1=N/c1ccc(Cl)cc1Br
IC50 (PIK3CA; enzyme activity, inhibitor, ADP detection): 0.0383 µM

O=C(O)Cc1cc2c(cc1C(=O)c1ccccc1)OCO2
IC50 (Gria2/Glutamate receptor 3; ion current, patch clamp): 5.51 µM

COc1ccc(Nc2ncnc3ccc(-c4ccc(S(=O)(=O)N5CCOCC5)cc4)cc23)cc1Cl
EC50 (Leishmania major; intracellular amastigote growth, luciferase; RAW264.7 macrophages): 4.8 µM

Cc1oc(C)c(-c2ccc(N(CC(C)C)C3CCCCC3)c(NC(=O)Nc3cccc(B4OC(C)(C)C(C)(C)O4)c3)c2)c1C(=O)O
IC50 (IDO1; enzyme activity, inhibitor, recombinant enzyme, item: kynurenine; 20 min, 2% DMSO, together with: L-tryptophan): 94 ± 14 µM

CC1CCC2C(C)C(OC(=O)CCC(=O)OCCOC(=O)N3CCC(Nc4ccc(S(=O)(=O)NC(=O)c5ccc(N6CCN(CC7=C(c8ccc(Cl)cc8)CC(C)(C)CC7)CC6)cc5Oc5cnc6[nH]ccc6c5)cc4[N+](=O)[O-])CC3)OC3OC4(C)CCC1C32OO4 (centres unmarked)
IC50 (BCL2 (Homo sapiens, UniProt P10415); ligand displacement, FP): 0.594 µM

CC(C)(C)n1ncc2c(=O)n(Cc3cccc(F)c3)c(NCc3ccc(F)cn3)nc21
IC50 (PDE9A; enzyme activity, inhibitor): > 10 µM

C#CCCn1nc(C)c2c(Cl)c(C(=O)NCC3CC(C)=NO3)cnc21 (centres unmarked)
IC50 (60 kDa heat shock protein, mitochondrial with HSP10; HSP60/10-mediated MDH refolding; 5 min, preincubation before ATP, together with: denatured malate dehydrogenase): > 100 µM

Cc1cc(NC2CCN(C)CC2)ccc1-c1cc2c(N3CCC[C@H](C(=O)NCc4ccc(OC(F)(F)F)cc4)C3)ncnc2[nH]1
IC50 (MAPK3 (Homo sapiens, UniProt P27361); enzyme activity, inhibitor, mobility shift): > 8 µM

O=C(CCNc1cccc2c1C(=O)N(C1CCC(=O)NC1=O)C2=O)NCCOCCOCCOCCN1CCC(CNC(=O)c2cccc(-c3noc(C(F)(F)F)n3)c2)(c2nc(-c3ccccc3)cs2)CC1 (centres unmarked)
IC50 (HDAC7 (Homo sapiens, UniProt Q8WUI4); enzyme activity, inhibitor): 0.6 µM

Cc1oc(C)c(-c2ccc(N(CC(C)C)C3CCCCC3)c(NC(=O)NC34CC5CC(CC(C5)C3)C4)c2)c1C(=O)O
IC50 (IDO1; enzyme activity, inhibitor, recombinant enzyme, item: kynurenine; 20 min, 2% DMSO, together with: L-tryptophan): 27 ± 4 µM

C=CCc1cc(OC)c(OC(C)C(O)c2ccc(O)c(OC)c2)c(OC)c1 (centres unmarked)
IC50 (CES1 (Homo sapiens, UniProt P23141); enzyme activity, inhibitor): 7.69 µM

Cc1nn(-c2cccc(N)c2)c(=O)c2cnc(Nc3ccc(N4CCNCC4)cc3)nc12
IC50 (PRKCD (Homo sapiens, UniProt Q05655); enzyme activity, inhibitor): > 10 µM

COc1ccc(CNC(=O)c2cnc3c(c(C)nn3C)c2Cl)cc1
IC50 (MDH2 (Sus scrofa, UniProt P00346); enzyme activity, reporter counter-screen; native enzyme): > 63 µM

CCN(CC)CC(=O)Nc1cccc(-n2cc(-c3ccc4ccc(-c5cn(-c6cccc(NC(=O)CN(CC)CC)c6)nn5)cc4c3)nn2)c1
IC50 (MAPKAPK2 (Homo sapiens, UniProt P49137); enzyme activity, inhibitor): > 10 µM

CC[C@H]1CN([C@@H](CC)c2ccc(C(F)(F)F)cc2)[C@H](CC)CN1c1nc(=O)n(C)c2ccc(C#N)nc12
IC50 (DGKZ; enzyme activity, inhibitor, ADP detection): 0.002 µM

Cc1ccc(Nc2cc(NC3CC3)n3ncc(C#N)c3n2)cc1NC(=O)C1CC1
IC50 (CSNK2A1 (Homo sapiens, UniProt P68400); target engagement in cells, BRET): 7.7 µM

Fc1ccc(Nc2nc(NC3CCCCC3)c3cc(C(F)(F)F)ccc3n2)cc1F
IC50 (ADRB2 (Homo sapiens, UniProt P07550); cAMP production, antagonist, GloSensor; together with: isoproterenol 1 µM): > 50 µM

Cc1ccc(-c2c3c([nH]c(=O)c2C#N)C(CC(C)C)CCC3)cc1 (centres unmarked)
IC50 (PDE9A; enzyme activity, inhibitor, radiometric): 0.0199 µM

O=C(CCNC(=O)CNC(=O)CC(c1ccccc1)(c1ccccc1)c1ccccc1)NC[C@@H]1CCCN(C[C@H]2C[C@H](F)C2)C1
IC50 (CHRM1 (Homo sapiens, UniProt P11229); ligand displacement, radioligand; cell membranes): > 30 µM

Oc1cc(O)c2cc(O[C@@H]3OC[C@H](O)[C@H](O)[C@H]3O)c(-c3ccc(O)c(O)c3)[o+]c2c1
IC50 (PPO3 (Agaricus bisporus, UniProt C7FF04); enzyme activity, inhibitor, absorbance; pH 6.8): 55.5 µM

COC(=O)Cc1cc2c(cc1C(=O)c1ccc(Cl)cc1Cl)OCO2
IC50 (Gria2/Glutamate receptor 3; ion current, patch clamp): 4.9 µM

O=C(c1cccc(-c2ccc3ncnc(Nc4ccc(OCc5cccc(F)c5)c(Cl)c4)c3c2)c1)N1CCCC1
EC50 (Leishmania major; intracellular amastigote growth, luciferase; RAW264.7 macrophages): 18 µM

O=C(O)Cc1cc2c(cc1C(=O)c1ccccc1Br)OCO2
IC50 (Gria2/Glutamate receptor 3; ion current, antagonist, patch clamp): 4.57 µM

O=C1C(Cl)=C(NCCN2CCOCC2)C(=O)c2ncccc21
IC50 (SETD7 (Homo sapiens, UniProt Q8WTS6); enzyme activity, inhibitor): > 100 µM

C#CCCn1nc(C)c2c(Cl)c(C(=O)NCC3CC(Br)=NO3)cnc21 (centres unmarked)
IC50 (60 kDa heat shock protein, mitochondrial with HSP10; HSP60/10-mediated MDH refolding; 5 min, preincubation before ATP, together with: denatured malate dehydrogenase): 67 µM

C=CC(=O)N1C[C@H](C)N(c2nc(OC[C@@]34CCCN3C[C@H](F)C4)nc3c(F)c(-c4ccc(F)c5sc(N)c(C#N)c45)c(C(F)(F)F)cc23)C[C@H]1C
IC50 (GTPase KRas, GppNHp; with RAF1 RBD (KRAS, Homo sapiens, UniProt P01116, G12V)): 6.8 ± 1.3 µM

O=C(O)Cc1cc2c(cc1C(=O)c1cccc(I)c1)OCO2
IC50 (Gria2/Glutamate receptor 3; ion current, patch clamp): 4.71 µM

COC(=O)c1ccccc1CN1CCC(Nc2nc(NCc3cccc(OC)c3)nc3[nH]cnc23)CC1
IC50 (IPMK (Homo sapiens, UniProt Q8NFU5); enzyme activity, inhibitor): 26 µM

CCn1nc(Cl)c2c1-c1cnc(N)c(c1)O[C@H](C)c1cc(F)ccc1-c1nn(C)cc1C2
IC50 (CSF1R (Homo sapiens, UniProt P07333); enzyme activity, inhibitor, radiometric): 0.46 µM

O=C1Nc2ccccc2C12NC(c1ccc(F)cc1)C1(C(=O)Nc3ccccc31)N2Cc1ccc(F)cc1 (centres unmarked)
IC50 (PIK3CA; enzyme activity, inhibitor, ADP detection): 0.605 µM

CC(C)[C@@H](NC(=O)C(=O)O)C(=O)O
IC50 (KDM4E (Homo sapiens, UniProt B2RXH2); enzyme activity, inhibitor): > 1000 µM

Excerpt of the above:
O=C(O)Cc1cc2c(cc1C(=O)c1ccccc1)OCO2
IC50 (Gria2/Glutamate receptor 3; ion current, patch clamp): 5.51 µM

COc1ccc(Nc2ncnc3ccc(-c4ccc(S(=O)(=O)N5CCOCC5)cc4)cc23)cc1Cl
EC50 (Leishmania major; intracellular amastigote growth, luciferase; RAW264.7 macrophages): 4.8 µM

Cc1oc(C)c(-c2ccc(N(CC(C)C)C3CCCCC3)c(NC(=O)Nc3cccc(B4OC(C)(C)C(C)(C)O4)c3)c2)c1C(=O)O
IC50 (IDO1; enzyme activity, inhibitor, recombinant enzyme, item: kynurenine; 20 min, 2% DMSO, together with: L-tryptophan): 94 ± 14 µM
